Experimental data from different studies.
Each line is one published result; not all experiments were run side by side. Several values in a cell are separate wells, animals, samples, runs or records. ± marks the error that the study gave.

Structure (SMILES) | tested on | test | test system | conditions | scale | endpoint | result
S=C(Nc1ccccc1)c1ccccn1 | Mus musculus | gene silencing, high-content imaging | LDR reporter GFP cells | retest run 2 |  | maximal activity | 110%
C[C@H](Oc1ccc(Br)cc1-c1ccon1)C(=O)O |  | muscle velocity recovery cycles | human, tibialis anterior muscle | 600 mg once daily, multiple doses, 30 Hz train for 30 s | baseline: placebo | latency change | -0.07%
COc1cc2c(cc1Nc1nc(N3CCc4ccccc43)c3cc[nH]c3n1)N(C(=O)CN(C)C)CC2 | Trypanosoma brucei |  |  | unit not given | baseline: pEC50 T. brucei minus pTC50 HepG2 | selectivity | 1.4
CCn1c(=O)c(-c2cc[nH]n2)cc2c(C)nc(N)nc21 | Enterovirus A71 | histopathology | EV71-infected suckling mice, spleen | 0.25 mg/kg | direction not given | inflammatory infiltration score | 1
Oc1ccccc1-c1n[nH]cc1-c1ccnc2ccccc12 | PBS2 (Candida albicans) | kinase binding, MIB/MS competition | Candida albicans lysate | 1 µM | baseline: DMSO | log2 fold change | 0
CCc1cc2c(cc1N1CCC(N3CCOCC3)CC1)C(C)(C)c1[nH]c3cc(C#N)ccc3c1C2=O | Trypanosoma brucei | cell growth |  |  |  | EC50 | > 3000 nM
c1coc(-c2n[nH]cc2-c2ccnc3ccccc23)c1 | CTK1 (Candida albicans) | kinase binding, MIB/MS competition | Candida albicans lysate | 1 µM | baseline: DMSO | log2 fold change | 0.04
O=c1c2ccccc2nc(COc2ccccc2)n1/N=C/c1c[nH]c2ccccc12 | Mus musculus | gene silencing, high-content imaging | LDR reporter GFP cells | retest run 1 |  | maximal activity | 26%
[O-][S+]1CCN(Cc2ccc(-c3ccc4ncnc(Nc5ccc(OCc6ccccc6)c(Cl)c5)c4c3)o2)CC1 | Trypanosoma brucei |  |  | unit not given | baseline: pEC50 T. brucei minus pTC50 HepG2 | selectivity | > 2.2
Cn1cc(-c2ccc(-c3cncc(Cl)c3N3CCC4(CCNC4=O)CC3)cc2)cn1 | COLO 205 | gene expression, microarray, refers to: HIST2H4A mRNA |  | concentration not given, 6 h | baseline: untreated cells | log2 fold change | -2.63
O=C(Cn1c(=O)n(Cc2ccc(F)cc2)c(=O)c2sc3ccccc3c21)Nc1ccc(F)cc1F | Mus musculus | gene silencing, high-content imaging | LDR reporter GFP cells | retest run 1 |  | maximal activity | 65%
CS(=O)(=O)CCNCc1ccc(-c2ccc3ncnc(Nc4ccc(OCc5cccc(C(F)(F)F)c5)cc4)c3c2)o1 | Trypanosoma brucei |  |  | unit not given | baseline: pEC50 T. brucei minus pTC50 HepG2 | selectivity | 1.3
CC(C)C[C@@H](C=O)NC(=O)[C@H](CC(C)C)NC(=O)[C@H](CC(C)C)NC(=O)OCc1ccccc1 | Mus musculus | gene silencing, high-content imaging | LDR reporter GFP cells | 30 h, retest run 1 |  | Emax | 139%
O=c1sn(-c2cccc3ccccc23)c(=O)n1Cc1ccccc1 | Trypanosoma brucei | cell growth |  |  |  | EC50 | > 3000 nM
CC(C)NCC(O)c1ccc(O)c(O)c1 (stereo not drawn) |  |  | ventricular cardiomyocytes, C57BL/6 mouse | dose not given, 0.752 s |  | sarcomere length | 1.72 µm
COc1ccc(C(=O)/C=C/Sc2nc3ccccc3o2)cc1 | Mus musculus | gene silencing, high-content imaging | LDR reporter GFP cells | retest run 2 |  | maximal activity | 45%
N#Cc1ccc2c(-c3ccncc3)c(-c3ccc(F)cc3)nn2c1 |  | kinase binding, competitor, MIB/MS competition, refers to: TOR1 | Candida albicans cell lysate | 1 µM | baseline: DMSO | log2 fold change | -0.718
CC(C)n1ncc2c(C(=O)NCC3(C)CNC3)cc(C3CC3)nc21 | Enterovirus D68 | cytopathic effect | RD, US/IL/14-18956 | 5000 nM |  | cell protection | 96.6% and 95.4% and 92.8%
CCn1c(-c2nonc2N)nc2cncc(C(=O)N3CC[C@H](N)C3)c21 | Trypanosoma brucei brucei | cell growth |  | concentration not given, PKIS HTS |  | inhibition | 93.5%
CCOc1ccc(NC(=O)c2nc(S(=O)(=O)Cc3ccccc3F)ncc2Cl)cc1 | Mus musculus | gene silencing, high-content imaging | LDR reporter GFP cells | retest run 2 |  | maximal activity | 78%
COc1cc2c(cc1Nc1nc(Nc3ccsc3C(N)=O)c3cc[nH]c3n1)N(C(=O)CN(C)C)CCC2 | Trypanosoma brucei |  |  | unit not given | baseline: pEC50 T. brucei minus pTC50 HepG2 | selectivity | 1.4
CCOC(=O)c1c(NC(=O)CC2Nc3cc(C)c(C)cc3NC2=O)sc(C)c1C (stereo not drawn) | Mus musculus | gene silencing, high-content imaging | LDR reporter GFP cells | retest run 2 |  | maximal activity | 104%
CN1CC[C@H](c2c(O)cc(O)c3c(=O)cc(-c4ccccc4Cl)oc23)[C@H](O)C1 | Trypanosoma brucei | cell growth |  |  |  | EC50 | 177 ± 72 nM
COc1cc2nc(=S)n3[nH]c(CCn4nc(C)cc4C)nc3c2cc1OC | Mus musculus | gene silencing, high-content imaging | LDR reporter GFP cells | retest run 2 |  | maximal activity | 103%

Repeated from above:
Structure (SMILES) | tested on | test | test system | conditions | scale | endpoint | result
CS(=O)(=O)CCNCc1ccc(-c2ccc3ncnc(Nc4ccc(OCc5cccc(C(F)(F)F)c5)cc4)c3c2)o1 | Trypanosoma brucei |  |  | unit not given | baseline: pEC50 T. brucei minus pTC50 HepG2 | selectivity | 1.3
CC(C)C[C@@H](C=O)NC(=O)[C@H](CC(C)C)NC(=O)[C@H](CC(C)C)NC(=O)OCc1ccccc1 | Mus musculus | gene silencing, high-content imaging | LDR reporter GFP cells | 30 h, retest run 1 |  | Emax | 139%
O=c1sn(-c2cccc3ccccc23)c(=O)n1Cc1ccccc1 | Trypanosoma brucei | cell growth |  |  |  | EC50 | > 3000 nM
